Published values pooled from the literature.
A part holds a random share of what one study measured. Substitutions count along the parent as printed.

Series 1 — target: CREM, bZIP domain (human); technique: DHFR protein complementation; medium: yeast; relative to: wild-type JUN-FOS pair; direction: higher = stronger binding
Notes: single substitutions, most at no-binding floor
Starting sequence: JUN, bZIP domain (human); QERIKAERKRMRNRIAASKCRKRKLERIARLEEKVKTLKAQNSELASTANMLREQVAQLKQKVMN; partner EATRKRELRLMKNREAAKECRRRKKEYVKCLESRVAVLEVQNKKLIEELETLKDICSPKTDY
| Variant | binding fitness [natural log] |
| --- | --- |
| L38E | -1.5 |
| S43A | -1.38 |
| A57M | -1.22 |
| E32Q | -1.43 |
| A46T | -1.39 |
| Q41D | -1.66 |
| V35L | -1.27 |
| Q55H | -1.47 |

Series 2 — Molecule: AAAVRKPIVLKR; form: peptide; direction: direction not given
| tested on | assay | system | conditions | enrichment score |
| --- | --- | --- | --- | --- |
| Cln2 (Saccharomyces cerevisiae) | peptide binding, competitive growth sequencing | Saccharomyces cerevisiae, unfused Cln2 strain | peptide tiling library | 0.171 |
| Saccharomyces cerevisiae | binding, yeast competitive growth sequencing | cyclin B3-Cln2 fusion strain | peptide tiling library | -0.0747 |
| human cyclin A2 | competitive growth deep sequencing | Saccharomyces cerevisiae, cyclin A2-Cln2 fusion strain | peptide tiling library | -0.0636 |
| Saccharomyces cerevisiae | cell growth, competitive growth deep sequencing |  | peptide tiling library, together with: cyclin E2-Cln2 fusion | -0.288 |
| Saccharomyces cerevisiae | cell growth, competitive growth deep sequencing |  | peptide tiling library, together with: cyclin F-Cln2 fusion | -0.355 |
|  | peptide binding | yeast competitive growth | together with: B1-Cln2 chimera | 0.0211 |
| Saccharomyces cerevisiae | mating pheromone growth arrest, pooled competitive growth deep sequencing | no Cln2 overexpression | peptide tiling library | -0.176 |
| Saccharomyces cerevisiae | binding, competitive growth deep sequencing | cyclin E1-Cln2 fusion strain | peptide tiling library | -0.27 |

Series 3 — target: tungstate, free oxyanion; technique: microfluidic competitive inhibition; medium: in vitro, cell-free expressed; tested at: not given; direction: lower = stronger binding
Notes: derived from inhibition constants, unchanged parent 2230 nM
Starting sequence: PafA, mature enzyme, eGFP fusion (Elizabethkingia meningoseptica, UniProt Q9KJX5); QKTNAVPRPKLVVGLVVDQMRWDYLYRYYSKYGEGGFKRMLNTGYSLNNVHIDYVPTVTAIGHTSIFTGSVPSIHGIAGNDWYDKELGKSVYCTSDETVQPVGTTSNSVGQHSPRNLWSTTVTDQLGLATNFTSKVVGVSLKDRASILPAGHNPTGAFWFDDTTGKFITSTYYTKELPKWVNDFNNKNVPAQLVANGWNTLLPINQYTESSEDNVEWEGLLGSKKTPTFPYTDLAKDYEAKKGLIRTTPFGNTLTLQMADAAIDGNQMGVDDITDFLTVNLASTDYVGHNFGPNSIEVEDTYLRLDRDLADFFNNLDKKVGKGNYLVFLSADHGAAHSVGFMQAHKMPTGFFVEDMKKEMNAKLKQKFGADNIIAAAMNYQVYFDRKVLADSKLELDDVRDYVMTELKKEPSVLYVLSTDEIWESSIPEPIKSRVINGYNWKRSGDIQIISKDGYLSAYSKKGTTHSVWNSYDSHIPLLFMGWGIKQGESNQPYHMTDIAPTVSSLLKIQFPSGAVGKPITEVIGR
| Variant | oxyanion analog dissociation constant [nM] |
| --- | --- |
| S70V | 1890 |
| T465G | 1470 |
| K462G | 2050 |
| L316V | 2440 |
| D385G | 2070 |
| K358G | 1880 |

Other studies, line by line
| Molecule | partner | assay | system | conditions | measurement | value |
| --- | --- | --- | --- | --- | --- | --- |
| ERLIN1 (Homo sapiens, UniProt O75477) | ERLIN2 (Homo sapiens, UniProt O94905) | cross-linking MS | cells | together with: BSPNO | cross-linked residues | K228 to K241 |

A few entries again (other studies, line by line):
| Molecule | partner | assay | system | conditions | measurement | value |
| --- | --- | --- | --- | --- | --- | --- |
| ERLIN1 (Homo sapiens, UniProt O75477) | ERLIN2 (Homo sapiens, UniProt O94905) | cross-linking MS | cells | together with: BSPNO | cross-linked residues | K228 to K241 |
